Measurements pooled from the literature.
Lines come from different studies, so protocols differ. ± marks the error that the study gave.
gyrB with GyrA: DNA gyrase subunit B, with GyrA (gyrB, Mycobacterium tuberculosis, UniProt P9WG45)
Sequence of UniProt P9WG45 (whole entry, looked up): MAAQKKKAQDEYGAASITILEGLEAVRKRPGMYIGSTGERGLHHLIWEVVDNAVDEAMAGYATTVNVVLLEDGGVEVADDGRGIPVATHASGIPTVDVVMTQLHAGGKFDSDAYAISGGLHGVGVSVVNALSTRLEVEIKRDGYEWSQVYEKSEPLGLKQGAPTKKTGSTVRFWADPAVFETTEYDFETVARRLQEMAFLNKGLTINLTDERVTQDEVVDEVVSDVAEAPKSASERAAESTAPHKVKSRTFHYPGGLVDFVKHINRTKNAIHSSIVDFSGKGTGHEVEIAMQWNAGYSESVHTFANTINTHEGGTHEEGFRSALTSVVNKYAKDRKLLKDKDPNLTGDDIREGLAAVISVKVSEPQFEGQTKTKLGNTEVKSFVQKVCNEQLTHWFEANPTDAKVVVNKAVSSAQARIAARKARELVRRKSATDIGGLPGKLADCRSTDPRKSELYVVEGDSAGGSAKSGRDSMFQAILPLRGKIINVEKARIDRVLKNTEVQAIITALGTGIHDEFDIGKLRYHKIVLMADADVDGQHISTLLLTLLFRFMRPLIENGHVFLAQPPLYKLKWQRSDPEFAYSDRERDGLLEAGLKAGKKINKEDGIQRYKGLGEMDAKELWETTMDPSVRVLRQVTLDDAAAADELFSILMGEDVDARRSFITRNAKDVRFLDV
Sequence of UniProt O00311 (whole entry, looked up): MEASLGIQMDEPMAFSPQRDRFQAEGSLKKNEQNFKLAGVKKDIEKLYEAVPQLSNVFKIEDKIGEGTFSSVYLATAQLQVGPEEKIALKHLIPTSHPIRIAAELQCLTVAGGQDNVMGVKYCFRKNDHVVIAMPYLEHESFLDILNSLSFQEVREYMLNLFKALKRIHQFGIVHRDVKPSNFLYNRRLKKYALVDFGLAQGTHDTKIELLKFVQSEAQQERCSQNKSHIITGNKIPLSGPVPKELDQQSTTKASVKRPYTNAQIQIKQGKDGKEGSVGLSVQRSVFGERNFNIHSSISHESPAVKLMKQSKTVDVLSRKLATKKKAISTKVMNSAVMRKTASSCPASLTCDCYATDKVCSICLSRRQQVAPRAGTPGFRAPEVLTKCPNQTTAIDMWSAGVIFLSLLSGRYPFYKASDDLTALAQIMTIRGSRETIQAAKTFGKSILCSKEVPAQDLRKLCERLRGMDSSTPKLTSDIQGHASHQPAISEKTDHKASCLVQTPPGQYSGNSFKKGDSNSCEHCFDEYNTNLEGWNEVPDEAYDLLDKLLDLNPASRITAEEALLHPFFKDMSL
Sequence of UniProt P35372 (whole entry, looked up): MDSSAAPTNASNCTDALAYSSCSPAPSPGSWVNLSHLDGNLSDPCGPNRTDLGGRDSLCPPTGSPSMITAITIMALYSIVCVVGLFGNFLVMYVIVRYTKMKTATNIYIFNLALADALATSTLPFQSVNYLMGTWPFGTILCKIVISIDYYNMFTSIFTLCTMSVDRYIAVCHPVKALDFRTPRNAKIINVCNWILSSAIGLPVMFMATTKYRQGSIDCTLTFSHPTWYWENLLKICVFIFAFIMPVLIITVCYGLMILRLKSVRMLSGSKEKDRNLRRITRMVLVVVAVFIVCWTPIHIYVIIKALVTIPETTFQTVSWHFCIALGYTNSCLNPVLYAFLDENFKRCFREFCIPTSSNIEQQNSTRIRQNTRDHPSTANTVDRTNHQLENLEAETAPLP
Sequence of UniProt Q9EXR0 (whole entry, looked up): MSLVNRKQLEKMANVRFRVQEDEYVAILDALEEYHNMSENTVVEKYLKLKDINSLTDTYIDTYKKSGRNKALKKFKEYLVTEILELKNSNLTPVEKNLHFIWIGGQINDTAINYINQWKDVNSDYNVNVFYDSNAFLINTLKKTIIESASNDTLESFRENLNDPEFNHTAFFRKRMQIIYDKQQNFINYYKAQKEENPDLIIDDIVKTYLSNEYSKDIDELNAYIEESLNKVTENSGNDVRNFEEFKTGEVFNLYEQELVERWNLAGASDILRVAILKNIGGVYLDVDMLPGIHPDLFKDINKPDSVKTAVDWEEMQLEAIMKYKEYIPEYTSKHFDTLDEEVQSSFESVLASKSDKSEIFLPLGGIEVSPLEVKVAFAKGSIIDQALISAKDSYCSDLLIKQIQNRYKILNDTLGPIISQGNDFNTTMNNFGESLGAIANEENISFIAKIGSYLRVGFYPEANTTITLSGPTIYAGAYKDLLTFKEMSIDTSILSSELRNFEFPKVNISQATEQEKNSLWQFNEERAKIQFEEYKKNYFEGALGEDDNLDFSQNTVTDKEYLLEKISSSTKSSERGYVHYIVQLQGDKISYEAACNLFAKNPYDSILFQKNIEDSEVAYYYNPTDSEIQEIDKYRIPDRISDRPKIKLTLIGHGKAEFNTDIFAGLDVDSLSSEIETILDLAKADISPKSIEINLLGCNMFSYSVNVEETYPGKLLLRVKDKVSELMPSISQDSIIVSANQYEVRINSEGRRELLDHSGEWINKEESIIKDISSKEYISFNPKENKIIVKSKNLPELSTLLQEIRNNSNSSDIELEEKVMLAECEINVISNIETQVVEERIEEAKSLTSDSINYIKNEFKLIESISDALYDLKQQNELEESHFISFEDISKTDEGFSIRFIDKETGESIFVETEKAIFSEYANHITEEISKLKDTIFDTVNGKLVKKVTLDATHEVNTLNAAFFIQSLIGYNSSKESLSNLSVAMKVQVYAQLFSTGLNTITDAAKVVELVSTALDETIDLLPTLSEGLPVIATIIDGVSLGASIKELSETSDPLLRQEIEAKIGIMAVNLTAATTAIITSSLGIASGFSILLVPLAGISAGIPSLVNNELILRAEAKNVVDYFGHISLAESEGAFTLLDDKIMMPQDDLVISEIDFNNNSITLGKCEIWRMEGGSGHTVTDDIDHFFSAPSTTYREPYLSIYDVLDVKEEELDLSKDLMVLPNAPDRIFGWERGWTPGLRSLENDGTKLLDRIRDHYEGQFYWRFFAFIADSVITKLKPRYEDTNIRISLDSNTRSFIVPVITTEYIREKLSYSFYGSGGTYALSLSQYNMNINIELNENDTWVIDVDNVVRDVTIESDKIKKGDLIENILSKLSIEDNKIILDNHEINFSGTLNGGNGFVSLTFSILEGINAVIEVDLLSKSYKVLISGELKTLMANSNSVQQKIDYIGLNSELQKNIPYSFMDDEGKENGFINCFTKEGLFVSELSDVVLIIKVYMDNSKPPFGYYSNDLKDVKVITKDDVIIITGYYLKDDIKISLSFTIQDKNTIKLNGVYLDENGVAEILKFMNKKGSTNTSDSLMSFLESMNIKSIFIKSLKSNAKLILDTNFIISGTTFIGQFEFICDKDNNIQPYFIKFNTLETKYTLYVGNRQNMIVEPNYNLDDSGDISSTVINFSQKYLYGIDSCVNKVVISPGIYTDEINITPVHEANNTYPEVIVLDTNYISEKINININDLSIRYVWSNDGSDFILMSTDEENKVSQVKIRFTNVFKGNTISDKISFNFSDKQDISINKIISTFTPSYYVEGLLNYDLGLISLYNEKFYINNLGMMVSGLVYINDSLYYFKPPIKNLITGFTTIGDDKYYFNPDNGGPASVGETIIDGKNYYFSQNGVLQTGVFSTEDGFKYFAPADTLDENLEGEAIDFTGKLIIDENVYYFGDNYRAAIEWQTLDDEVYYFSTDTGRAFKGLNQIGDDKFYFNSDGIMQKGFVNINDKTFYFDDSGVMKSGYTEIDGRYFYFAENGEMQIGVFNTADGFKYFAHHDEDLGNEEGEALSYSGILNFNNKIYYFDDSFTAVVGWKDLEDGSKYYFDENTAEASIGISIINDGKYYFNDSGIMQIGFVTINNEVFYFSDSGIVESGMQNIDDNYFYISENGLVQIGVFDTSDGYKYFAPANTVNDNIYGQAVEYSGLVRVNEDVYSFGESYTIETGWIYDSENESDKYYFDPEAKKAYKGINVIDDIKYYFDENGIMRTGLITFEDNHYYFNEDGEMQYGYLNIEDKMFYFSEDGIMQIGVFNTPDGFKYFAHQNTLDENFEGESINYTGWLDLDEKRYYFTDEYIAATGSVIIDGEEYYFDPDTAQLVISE

Compound | target or system | assay | test system | conditions | how to read | quantity | result
COc1ccc(NC(=O)N2CCCCN3[C@H](CN(C)C)[C@H](c4ccc(C#Cc5ccccc5)cc4)[C@@H]3C2)cc1 | Toxoplasma gondii | tachyzoite growth, luciferase | ME49-Fluc, type II |  |  | EC50 | 0.05 µM
O[C@H]1[C@H](O)[C@@H](O)CN2CC[C@H](O)[C@H]12 | Toxin B, glucosyltransferase domain (tcdB, Clostridioides difficile, UniProt Q9EXR0) |  |  |  |  | Ki | 3880 µM
C[C@H]1CN(c2n[nH]c3nc(N[C@H]4CC[C@H](NS(=O)(=O)CCC(F)(F)F)CC4)ncc23)CCO1 | CDC7 (Homo sapiens, UniProt O00311) | biochemical |  |  |  | IC50 | ≥ 20 µM
O=C(CCc1c(C(=O)N2CCCC2)[nH]c2ccc(Cl)cc12)N1CCCC1 | gyrB with GyrA | inhibitor |  |  |  | IC50 | > 500 µM
O=C(NCCCN1CCCCC1)c1cc(Sc2ccc(Cl)cc2)nc2ccccc12 | Vero-E6 | CellTiter-Glo ATP |  | concentration not given, 72 h, retest 8-point duplicates | reference: DMSO 0%, hyamine -100%, more negative, more toxic | cytotoxicity efficacy | 0%
C[C@@H]1N/C(=C\[N+](=O)[O-])N(Cc2ccc(Cl)nc2)[C@H]1C |  | radioligand binding | Musca domestica head membranes | added: [3H]imidacloprid |  | Ki | 0.0517 ± 0.0196 µM
CC(C)(C)OC(=O)N1CCN(C(=O)CCc2c(C(=O)N3CCN(C(=O)OC(C)(C)C)CC3)[nH]c3cc(C(F)(F)F)c(Cl)cc23)CC1 | gyrB with GyrA | inhibitor |  |  |  | IC50 | > 500 µM
CCCN1CCN(CCCNC(=O)c2cc3c(Cl)nc4ccccc4c3s2)CC1 | Vero-E6 | CellTiter-Glo ATP |  | concentration not given, 72 h, retest 8-point duplicates | reference: DMSO 0%, hyamine -100%, more negative, more toxic | cytotoxicity efficacy | -29.6%
COc1cc(Nc2ncc(F)c(Nc3ccc4c(n3)NC(=O)C(C)(C)O4)n2)cc(OC)c1OC | P2Y purinergic receptor |  |  |  |  | IC50 | > 10 µM
CC[C@@H](c1cccc(O)c1)[C@@H](C)CN(C)C | OPRM1 (Homo sapiens, UniProt P35372) | agonist | human cells | WT receptor, receptor depletion by β-CNA |  | EC50 | 2.51 µM

Some of these lines once more:
Compound | target or system | assay | test system | conditions | how to read | quantity | result
CCCN1CCN(CCCNC(=O)c2cc3c(Cl)nc4ccccc4c3s2)CC1 | Vero-E6 | CellTiter-Glo ATP |  | concentration not given, 72 h, retest 8-point duplicates | reference: DMSO 0%, hyamine -100%, more negative, more toxic | cytotoxicity efficacy | -29.6%
COc1cc(Nc2ncc(F)c(Nc3ccc4c(n3)NC(=O)C(C)(C)O4)n2)cc(OC)c1OC | P2Y purinergic receptor |  |  |  |  | IC50 | > 10 µM
